Experimental data collected from several papers.
Compare with care: the assays were run in different laboratories.
Target: Phosphatidylinositol 5-phosphate 4-kinase type-2 beta (PIP4K2B, Homo sapiens, UniProt P78356)

COc1cc(Nc2nccc(-c3cnn4nc(OC)ccc34)n2)cc(C(F)(F)F)c1  remaining binding (binding, competition with immobilised ligand; 1 µM): 50%
CS(=O)(=O)Nc1cccc(-c2csc3cnc(Nc4ccc(N5CCN(CCCCCOc6cccc7c6C(=O)N(C6CCC(=O)NC6=O)C7=O)CC5)cc4)nc23)c1 (stereo not shown)  inhibition (probe labelling, inhibitor, KiNativ chemoproteomics; MOLT-4; 1 µM): 7.5%
C=CC(=O)N1CCc2ccc(-n3c(=O)ccc4cnc5ccc(-c6cnn(C)c6)cc5c43)cc21  remaining binding (KINOMEscan; 1 µM; baseline: DMSO control): 100%
COc1c(Cl)cccc1Nc1c(-c2ccncc2C#C[C@@]2(C)CCCN2C(=O)/C=C/CN(C)C)[nH]c2c1C(=O)NCC2  remaining binding (cell-free assay, competition with immobilised ligand; 3 µM): 100%
C=CC(=O)N1CCCC(n2c(=O)c3ncccc3n(Cc3ccc(Oc4ccccc4)cc3)c2=O)C1 (stereo not shown)  remaining binding (cell-free assay, competition with immobilised ligand; 1 µM): 100%
Cc1ccc(-c2c(/C=C(\C#N)C(=O)NC(C)C)n(CCCO)c3ncnc(N)c23)cc1  remaining binding (cell-free assay, competition with immobilised ligand; 1 µM): 87%
CC(C)=CC1OC(C)(C)C2C=C3C(=O)C(Cl)=CC(O)C3C3C(O)C4OC4C(=O)C132 (stereo not shown)  remaining binding (cell-free assay, competition with immobilised ligand; 10 µM): 100%
Cc1cnc2nc1Nc1cccc(c1)COC/C=C/COCc1cc(ccc1OCCN1CCOCC1)N2  remaining binding (binding, competition with immobilised ligand; 0.1 µM): 100%
CCN1CCN(Cc2ccc(C(=O)Nc3ccc(C)c(NCc4cnc5[nH]ccc5c4OC)c3)cc2C(F)(F)F)CC1  remaining binding (binding, competition with immobilised ligand; 1 µM): 100%
COc1cc(Nc2nc(C)cc(-c3cnn4nc(OC)ccc34)n2)cc(C(F)(F)F)c1  remaining binding (binding, competition with immobilised ligand; 1 µM): 96%
CNC(=O)C1CCN(c2cc(C)c(F)cc2NC(=O)c2ccc(-c3cc(O)ccc3C)c(C)c2)CC1  remaining binding (binding, competition with immobilised ligand; 1 µM): 100%
Nc1ncc2c(n1)-c1c([nH]c3ccc(C4=CCOCC4)cc13)CCC2  remaining binding (binding, competition with immobilised ligand; 1 µM): 74%
CNC1C[S+]2CC[S+]3CC[S+](C1)[Ru-4]321([N]=C=S)[n]2c3ccc(OC)cc3c3c4c(c5cc(F)c[n+]1c5c32)C(=O)NC4=O (stereo not shown)  remaining binding (KinomeScan; 0.1 µM; baseline: untreated): 95%

For quick reference, copied from above:
CS(=O)(=O)Nc1cccc(-c2csc3cnc(Nc4ccc(N5CCN(CCCCCOc6cccc7c6C(=O)N(C6CCC(=O)NC6=O)C7=O)CC5)cc4)nc23)c1 (stereo not shown)  inhibition (probe labelling, inhibitor, KiNativ chemoproteomics; MOLT-4; 1 µM): 7.5%
